{"data": "Measurements of several laboratories", "note": "Protocols differ between the studies behind these lines. Values joined by “and” are separate records of one study, mostly repeats; a detail may differ. ± gives the spread as reported.", "UniProt P36107, sequence (whole entry, looked up)": "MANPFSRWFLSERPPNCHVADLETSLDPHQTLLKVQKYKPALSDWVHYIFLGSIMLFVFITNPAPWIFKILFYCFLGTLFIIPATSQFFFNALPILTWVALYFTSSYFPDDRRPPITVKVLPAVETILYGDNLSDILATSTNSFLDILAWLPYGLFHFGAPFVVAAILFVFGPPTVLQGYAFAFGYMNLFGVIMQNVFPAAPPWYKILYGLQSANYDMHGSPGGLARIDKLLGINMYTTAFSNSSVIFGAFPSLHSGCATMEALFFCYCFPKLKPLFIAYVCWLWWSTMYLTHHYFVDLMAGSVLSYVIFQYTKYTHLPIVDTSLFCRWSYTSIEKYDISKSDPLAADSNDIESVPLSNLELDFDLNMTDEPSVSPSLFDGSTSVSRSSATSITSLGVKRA", "UniProt P0A988, sequence (whole entry, unmodified, looked up)": "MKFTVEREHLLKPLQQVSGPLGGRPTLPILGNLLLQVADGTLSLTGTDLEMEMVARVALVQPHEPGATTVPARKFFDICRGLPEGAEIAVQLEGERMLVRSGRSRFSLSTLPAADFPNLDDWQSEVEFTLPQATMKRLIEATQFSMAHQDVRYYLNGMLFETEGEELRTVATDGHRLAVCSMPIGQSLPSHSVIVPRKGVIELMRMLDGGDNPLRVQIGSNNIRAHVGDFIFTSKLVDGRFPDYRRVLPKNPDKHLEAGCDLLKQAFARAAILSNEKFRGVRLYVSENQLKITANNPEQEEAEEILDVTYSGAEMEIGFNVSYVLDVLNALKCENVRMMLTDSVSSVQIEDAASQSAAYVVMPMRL", "UniProt Q06346, sequence (whole entry, looked up)": "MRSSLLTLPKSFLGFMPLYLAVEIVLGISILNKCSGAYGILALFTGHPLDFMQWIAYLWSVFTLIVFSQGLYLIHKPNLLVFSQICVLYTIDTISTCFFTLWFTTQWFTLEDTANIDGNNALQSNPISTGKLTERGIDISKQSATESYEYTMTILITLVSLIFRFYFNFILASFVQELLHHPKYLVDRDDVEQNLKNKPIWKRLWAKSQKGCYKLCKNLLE", "UniProt Q9Y2J8, sequence (whole entry, looked up)": "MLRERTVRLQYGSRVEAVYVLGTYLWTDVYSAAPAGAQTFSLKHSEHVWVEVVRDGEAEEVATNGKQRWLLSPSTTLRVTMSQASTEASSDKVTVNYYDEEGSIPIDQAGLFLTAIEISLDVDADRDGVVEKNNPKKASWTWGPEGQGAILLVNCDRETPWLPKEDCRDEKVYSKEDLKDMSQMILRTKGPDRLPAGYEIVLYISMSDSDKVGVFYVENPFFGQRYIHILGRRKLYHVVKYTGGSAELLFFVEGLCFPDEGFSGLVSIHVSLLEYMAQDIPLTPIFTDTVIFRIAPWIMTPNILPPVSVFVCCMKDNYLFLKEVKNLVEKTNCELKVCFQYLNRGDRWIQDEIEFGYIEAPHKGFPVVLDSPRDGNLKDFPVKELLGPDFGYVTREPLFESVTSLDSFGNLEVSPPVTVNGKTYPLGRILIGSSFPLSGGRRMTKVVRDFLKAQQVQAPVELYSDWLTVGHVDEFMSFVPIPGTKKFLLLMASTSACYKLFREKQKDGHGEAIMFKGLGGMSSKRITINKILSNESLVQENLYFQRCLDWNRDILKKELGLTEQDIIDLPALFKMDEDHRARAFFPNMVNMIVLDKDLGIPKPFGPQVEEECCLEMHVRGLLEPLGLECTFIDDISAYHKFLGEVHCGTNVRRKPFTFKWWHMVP", "UniProt P41145, sequence (whole entry, looked up)": "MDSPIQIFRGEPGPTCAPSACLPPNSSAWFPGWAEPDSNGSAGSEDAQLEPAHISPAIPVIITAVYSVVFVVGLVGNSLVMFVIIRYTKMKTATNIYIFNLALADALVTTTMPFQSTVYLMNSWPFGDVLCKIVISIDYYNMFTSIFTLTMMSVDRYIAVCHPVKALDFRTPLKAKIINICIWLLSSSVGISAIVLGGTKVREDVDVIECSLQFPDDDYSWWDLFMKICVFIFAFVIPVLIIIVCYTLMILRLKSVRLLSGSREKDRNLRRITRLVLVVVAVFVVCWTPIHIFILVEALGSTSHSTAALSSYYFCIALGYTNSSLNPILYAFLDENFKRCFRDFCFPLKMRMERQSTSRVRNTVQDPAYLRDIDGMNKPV", "UniProt P27338, sequence (whole entry, looked up)": "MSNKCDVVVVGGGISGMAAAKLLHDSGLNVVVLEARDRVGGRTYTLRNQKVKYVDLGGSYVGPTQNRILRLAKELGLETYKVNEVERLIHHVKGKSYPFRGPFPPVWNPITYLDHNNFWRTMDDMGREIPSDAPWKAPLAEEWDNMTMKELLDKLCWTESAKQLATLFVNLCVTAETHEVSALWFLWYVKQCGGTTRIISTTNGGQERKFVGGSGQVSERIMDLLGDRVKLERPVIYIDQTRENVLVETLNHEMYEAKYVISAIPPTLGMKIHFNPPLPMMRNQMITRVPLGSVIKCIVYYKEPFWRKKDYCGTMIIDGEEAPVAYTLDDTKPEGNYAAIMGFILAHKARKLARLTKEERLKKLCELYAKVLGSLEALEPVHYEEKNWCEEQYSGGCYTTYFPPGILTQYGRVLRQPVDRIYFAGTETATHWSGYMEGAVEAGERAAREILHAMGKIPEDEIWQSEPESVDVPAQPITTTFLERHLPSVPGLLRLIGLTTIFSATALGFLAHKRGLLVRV", "UniProt O42275, sequence (whole entry, looked up)": "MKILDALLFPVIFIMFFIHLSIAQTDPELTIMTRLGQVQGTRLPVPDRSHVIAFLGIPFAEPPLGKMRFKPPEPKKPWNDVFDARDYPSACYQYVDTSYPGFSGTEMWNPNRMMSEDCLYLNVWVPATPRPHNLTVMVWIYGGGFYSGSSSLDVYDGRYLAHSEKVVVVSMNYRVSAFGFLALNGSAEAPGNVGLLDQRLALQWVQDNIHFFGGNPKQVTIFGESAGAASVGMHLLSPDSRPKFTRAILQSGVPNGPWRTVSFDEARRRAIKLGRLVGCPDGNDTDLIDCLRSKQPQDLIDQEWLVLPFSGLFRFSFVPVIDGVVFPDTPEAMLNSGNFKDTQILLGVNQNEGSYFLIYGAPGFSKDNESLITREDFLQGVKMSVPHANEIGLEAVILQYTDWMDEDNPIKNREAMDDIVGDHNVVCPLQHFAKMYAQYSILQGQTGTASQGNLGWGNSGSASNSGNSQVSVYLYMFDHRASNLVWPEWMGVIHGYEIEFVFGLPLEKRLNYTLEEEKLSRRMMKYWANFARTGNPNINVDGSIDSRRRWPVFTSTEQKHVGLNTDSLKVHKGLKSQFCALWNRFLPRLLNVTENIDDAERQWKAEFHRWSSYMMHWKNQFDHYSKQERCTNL", "UniProt O60285, sequence (whole entry, looked up)": "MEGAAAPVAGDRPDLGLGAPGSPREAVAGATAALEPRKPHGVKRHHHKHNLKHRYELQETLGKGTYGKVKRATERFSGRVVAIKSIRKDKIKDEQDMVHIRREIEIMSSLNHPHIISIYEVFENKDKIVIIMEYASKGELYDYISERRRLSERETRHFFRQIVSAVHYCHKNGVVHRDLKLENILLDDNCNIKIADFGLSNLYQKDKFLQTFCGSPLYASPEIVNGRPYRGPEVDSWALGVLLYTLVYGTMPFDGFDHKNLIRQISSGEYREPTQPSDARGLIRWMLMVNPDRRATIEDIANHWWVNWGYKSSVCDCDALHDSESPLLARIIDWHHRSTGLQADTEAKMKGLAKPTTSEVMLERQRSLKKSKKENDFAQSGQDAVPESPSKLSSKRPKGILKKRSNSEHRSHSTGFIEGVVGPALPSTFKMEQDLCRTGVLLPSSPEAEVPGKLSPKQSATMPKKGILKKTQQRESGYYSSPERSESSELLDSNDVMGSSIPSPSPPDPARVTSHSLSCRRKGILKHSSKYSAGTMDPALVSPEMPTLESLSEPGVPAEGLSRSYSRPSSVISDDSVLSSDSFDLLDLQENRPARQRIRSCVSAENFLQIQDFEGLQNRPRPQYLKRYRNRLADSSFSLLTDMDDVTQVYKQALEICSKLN", "UniProt O00391, sequence (whole entry, looked up)": "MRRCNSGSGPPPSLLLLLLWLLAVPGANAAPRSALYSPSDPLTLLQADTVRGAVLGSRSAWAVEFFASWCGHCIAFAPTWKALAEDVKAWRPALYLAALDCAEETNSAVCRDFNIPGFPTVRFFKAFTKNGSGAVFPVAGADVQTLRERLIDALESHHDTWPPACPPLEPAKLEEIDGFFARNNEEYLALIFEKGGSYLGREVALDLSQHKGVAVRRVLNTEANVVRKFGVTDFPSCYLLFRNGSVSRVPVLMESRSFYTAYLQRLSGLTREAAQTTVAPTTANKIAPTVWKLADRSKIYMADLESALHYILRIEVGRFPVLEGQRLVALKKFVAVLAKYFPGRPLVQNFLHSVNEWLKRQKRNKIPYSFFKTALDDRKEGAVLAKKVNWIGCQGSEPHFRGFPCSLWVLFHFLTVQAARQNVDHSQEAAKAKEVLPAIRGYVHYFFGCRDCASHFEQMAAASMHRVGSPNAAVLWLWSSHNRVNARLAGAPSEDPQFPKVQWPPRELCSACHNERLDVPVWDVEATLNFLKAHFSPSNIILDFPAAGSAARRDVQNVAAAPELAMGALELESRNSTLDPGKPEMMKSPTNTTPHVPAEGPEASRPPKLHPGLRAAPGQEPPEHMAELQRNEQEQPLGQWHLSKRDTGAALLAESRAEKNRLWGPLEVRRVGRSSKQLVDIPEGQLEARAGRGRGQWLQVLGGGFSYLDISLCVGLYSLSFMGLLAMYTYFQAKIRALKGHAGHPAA", "UniProt P11802, sequence (whole entry, looked up)": "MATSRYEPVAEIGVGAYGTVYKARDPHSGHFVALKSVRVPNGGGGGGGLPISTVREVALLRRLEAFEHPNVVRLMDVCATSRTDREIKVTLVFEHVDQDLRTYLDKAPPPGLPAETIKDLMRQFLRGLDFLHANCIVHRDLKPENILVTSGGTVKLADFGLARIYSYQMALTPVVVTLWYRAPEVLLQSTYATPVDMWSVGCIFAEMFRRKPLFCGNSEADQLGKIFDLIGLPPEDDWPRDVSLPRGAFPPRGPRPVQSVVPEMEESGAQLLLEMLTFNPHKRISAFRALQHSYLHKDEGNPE"}
{"SMILES": "O=C1NC(=O)c2c1c1cc(F)c[n+]3c1c1c2c2cc(O)ccc2[n]1[Ru-4]312([N]=C=S)[S+]3CC[S+]1CC[S+]2CC3 (stereo not shown)", "target": "NUAK family SNF1-like kinase 1 (NUAK1, Homo sapiens, UniProt O60285)", "assay": "enzyme activity", "setting": "100 nM, human enzyme, with: 10 µM ATP", "how to read": "reference: untreated", "measurement": "remaining activity", "value": "31%"}
{"SMILES": "Cc1ccc(-c2csc(NN=C(C=Cc3c(Cl)cccc3Cl)C(=O)O)n2)cc1", "target": "Acetylcholinesterase (ache, Electrophorus electricus, UniProt O42275)", "assay": "Ellman", "how to read": "reference: IC50 BChE over IC50 AChE", "measurement": "selectivity index", "value": 12.1}
{"SMILES": "CC#CC(=O)NC[C@H](NC(=O)[C@H](CC1CCCCC1)NC(=O)[C@H](CCC(N)=O)NC(C)=O)C(=O)N[C@@H](CC(C)C)C(=O)N[C@@H](Cc1ccccc1)C(=O)O", "target": "Beta sliding clamp (Escherichia coli, UniProt P0A988)", "assay": "binding, isothermal titration calorimetry", "setting": "25 °C", "measurement": "ΔH", "value": "-11.8 kcal/mol"}
{"SMILES": "CC(C)[C@H]1NC(=O)C[C@H]2/C=C/CCSSC[C@@H](NC1=O)C(=O)N[C@H](Cc1cccc3ccccc13)C(=O)NCC(=O)O2", "target": "Serine/threonine-protein kinase Chk1 (CHEK1, Homo sapiens, UniProt O14757)", "assay": "enzyme activity, inhibitor", "setting": "10 µM", "measurement": "inhibition", "value": "0.0441%"}
{"SMILES": "CN(C)[C@H]1C[C@@]23CC[C@@]4(O2)C(=CC[C@]2(C)[C@@H](c5ccc6ccncc6c5)CC[C@H]24)C=C3[C@@H](O)[C@@H]1O", "target": "Cyclin-dependent kinase 4 (CDK4, Homo sapiens, UniProt P11802)", "assay": "ATP probe labelling, inhibitor, KiNativ profiling", "setting": "1 µM", "measurement": "inhibition", "value": "2.4%"}
{"SMILES": "CC[C@@H](C)[C@@H]1NC(=O)[C@@H]2CCCN2C(=O)[C@H](Cc2ccccc2)N(C)C(=O)[C@H](Cc2ccccc2)NC(=O)[C@H](C(C)C)N(C)C(=O)[C@@H]([C@H](C)CC)OC(=O)[C@H](C(C)(C)O)N(C)C(=O)[C@H](CC(C)C)NC(=O)[C@H](C(C)C)N(C)C1=O", "target": "AUR1/KEI1 (Saccharomyces cerevisiae, UniProt P36107+Q06346)", "assay": "enzyme activity, inhibitor", "setting": "concentration not given", "how to read": "reference: DMSO", "measurement": "normalized IPC synthase activity", "value": 0}
{"SMILES": "CC(C)C[C@H](NC(=O)[C@H](CC(=O)O)NC(=O)[C@@H](NC(=O)[C@H](CCC(=O)O)NC(=O)[C@H](CCCCN)NC(=O)[C@H](Cc1ccc(O)cc1)NC(=O)[C@H](CCCCN)NC(=O)[C@H](Cc1c[nH]cn1)NC(=O)CNC(=O)CN)[C@@H](C)O)C(N)=O", "target": "HCV IRES RNA", "assay": "RNA cleavage", "test system": "hepatitis C virus", "measurement": "kcat/Km", "value": "1170 M⁻¹ s⁻¹"}
{"SMILES": "O=C(Cc1ccc(Cl)c(Cl)c1)N1CCN(C(=O)C2(O)CCCC2)[C@@H]2COC[C@H](N3CCCC3)[C@H]21 (single isomer, unassigned)", "target": "Kappa-type opioid receptor (OPRK1, Homo sapiens, UniProt P41145)", "assay": "agonist", "setting": "0.3333 h", "measurement": "Emax", "value": "93%"}
{"SMILES": "N[C@H](C(=O)N1CCCC1)C1CCN(c2nccc3c(-c4ncc(Cl)cc4Cl)cccc23)CC1", "target": "Protein-arginine deiminase type-2 (PADI2, Homo sapiens, UniProt Q9Y2J8)", "assay": "thermal shift", "setting": "9.494 µM", "measurement": "melting temperature", "value": "69 °C and 68.7 °C"}
{"SMILES": "C#CCCCCOc1ccc2c(c1)CCCN2C(=O)CCl", "target": "Sulfhydryl oxidase 1 (QSOX1, Homo sapiens, UniProt O00391)", "assay": "mass spectrometry profiling", "test system": "H460 cell lysate", "setting": "100 µM over 10 µM, UniProt O00391", "how to read": "reference: high over low concentration", "measurement": "reactivity ratio", "value": 1.63}
{"SMILES": "Fc1cccc(F)c1/N=N/c1cccc([B-](F)(F)F)c1.[K+]", "target": "Chymotrypsinogen A (Bos taurus, UniProt P00766)", "assay": "enzyme activity, inhibitor", "setting": "with: Suc-AAPF-AMC", "how to read": "reference: Ki cis over Ki trans", "measurement": "switching factor", "value": "2.1 ± 0.1"}
{"SMILES": "CC[C@H](C)[C@H](NC(=O)[C@H](Cc1ccc(O)cc1)NC(=O)[C@@H]1CCCN1C(=O)[C@H](C)NC(=O)[C@H](CC(C)C)NC(=O)[C@H](C)NC(=O)[C@H](CO)NC(=O)CNC(=O)[C@H](Cc1c[nH]c2ccccc12)NC(=O)CNC(=O)[C@H](Cc1ccccc1)NC(=O)[C@H](C)NC(=O)[C@H](CC(C)C)NC(=O)[C@H](CO)NC(=O)[C@H](CCSC)NC(=O)[C@H](Cc1ccc(O)cc1)NC(=O)[C@H](CCC(N)=O)NC(=O)[C@@H](NC(=O)[C@H](CCCNC(=N)N)NC(=O)[C@@H]1CCCN1C(=O)[C@@H](NC(=O)[C@@H](NC(=O)[C@@H]1CCCN1C(=O)CN)C(C)C)C(C)C)[C@@H](C)O)C(=O)N1CCC[C@H]1C(=O)O", "target": "Cellular tumor antigen p53 (TP53, Homo sapiens, UniProt P04637, R175H)", "assay": "degrader, Western blot", "test system": "H1299 cotransfected", "setting": "concentration not given, 24 h", "measurement": "protein level", "value": "decreased"}
{"SMILES": "CS(C)(=O)=Nc1ccc(-c2ccc(-c3nc4cc(O[C@@H]5CO[C@H]6[C@@H]5OC[C@H]6O)[nH]c4cc3F)cc2)cc1", "target": "Amine oxidase [flavin-containing] B (MAOB, Homo sapiens, UniProt P27338)", "assay": "enzyme activity, inhibitor", "setting": "10 µM", "measurement": "inhibition", "value": "-3%"}
{"note": "Some of these lines once more:"}
{"SMILES": "CC[C@H](C)[C@H](NC(=O)[C@H](Cc1ccc(O)cc1)NC(=O)[C@@H]1CCCN1C(=O)[C@H](C)NC(=O)[C@H](CC(C)C)NC(=O)[C@H](C)NC(=O)[C@H](CO)NC(=O)CNC(=O)[C@H](Cc1c[nH]c2ccccc12)NC(=O)CNC(=O)[C@H](Cc1ccccc1)NC(=O)[C@H](C)NC(=O)[C@H](CC(C)C)NC(=O)[C@H](CO)NC(=O)[C@H](CCSC)NC(=O)[C@H](Cc1ccc(O)cc1)NC(=O)[C@H](CCC(N)=O)NC(=O)[C@@H](NC(=O)[C@H](CCCNC(=N)N)NC(=O)[C@@H]1CCCN1C(=O)[C@@H](NC(=O)[C@@H](NC(=O)[C@@H]1CCCN1C(=O)CN)C(C)C)C(C)C)[C@@H](C)O)C(=O)N1CCC[C@H]1C(=O)O", "target": "Cellular tumor antigen p53 (TP53, Homo sapiens, UniProt P04637, R175H)", "assay": "degrader, Western blot", "test system": "H1299 cotransfected", "setting": "concentration not given, 24 h", "measurement": "protein level", "value": "decreased"}
{"SMILES": "Fc1cccc(F)c1/N=N/c1cccc([B-](F)(F)F)c1.[K+]", "target": "Chymotrypsinogen A (Bos taurus, UniProt P00766)", "assay": "enzyme activity, inhibitor", "setting": "with: Suc-AAPF-AMC", "how to read": "reference: Ki cis over Ki trans", "measurement": "switching factor", "value": "2.1 ± 0.1"}
